Assay results of several laboratories.
Protocols differ between the studies behind these lines. Several values in a cell are separate wells, animals, samples, runs or records. ± gives the spread as reported.
OPG149: Resolvase OPG149 (OPG149, Vaccinia virus, UniProt Q80HV3)
Polyprotein P1234 nsP2 protease domain: Polyprotein P1234, nsP2 protease domain (Chikungunya virus, UniProt Q5XXP4)
Sequence of UniProt Q5XXP4 (whole entry, looked up): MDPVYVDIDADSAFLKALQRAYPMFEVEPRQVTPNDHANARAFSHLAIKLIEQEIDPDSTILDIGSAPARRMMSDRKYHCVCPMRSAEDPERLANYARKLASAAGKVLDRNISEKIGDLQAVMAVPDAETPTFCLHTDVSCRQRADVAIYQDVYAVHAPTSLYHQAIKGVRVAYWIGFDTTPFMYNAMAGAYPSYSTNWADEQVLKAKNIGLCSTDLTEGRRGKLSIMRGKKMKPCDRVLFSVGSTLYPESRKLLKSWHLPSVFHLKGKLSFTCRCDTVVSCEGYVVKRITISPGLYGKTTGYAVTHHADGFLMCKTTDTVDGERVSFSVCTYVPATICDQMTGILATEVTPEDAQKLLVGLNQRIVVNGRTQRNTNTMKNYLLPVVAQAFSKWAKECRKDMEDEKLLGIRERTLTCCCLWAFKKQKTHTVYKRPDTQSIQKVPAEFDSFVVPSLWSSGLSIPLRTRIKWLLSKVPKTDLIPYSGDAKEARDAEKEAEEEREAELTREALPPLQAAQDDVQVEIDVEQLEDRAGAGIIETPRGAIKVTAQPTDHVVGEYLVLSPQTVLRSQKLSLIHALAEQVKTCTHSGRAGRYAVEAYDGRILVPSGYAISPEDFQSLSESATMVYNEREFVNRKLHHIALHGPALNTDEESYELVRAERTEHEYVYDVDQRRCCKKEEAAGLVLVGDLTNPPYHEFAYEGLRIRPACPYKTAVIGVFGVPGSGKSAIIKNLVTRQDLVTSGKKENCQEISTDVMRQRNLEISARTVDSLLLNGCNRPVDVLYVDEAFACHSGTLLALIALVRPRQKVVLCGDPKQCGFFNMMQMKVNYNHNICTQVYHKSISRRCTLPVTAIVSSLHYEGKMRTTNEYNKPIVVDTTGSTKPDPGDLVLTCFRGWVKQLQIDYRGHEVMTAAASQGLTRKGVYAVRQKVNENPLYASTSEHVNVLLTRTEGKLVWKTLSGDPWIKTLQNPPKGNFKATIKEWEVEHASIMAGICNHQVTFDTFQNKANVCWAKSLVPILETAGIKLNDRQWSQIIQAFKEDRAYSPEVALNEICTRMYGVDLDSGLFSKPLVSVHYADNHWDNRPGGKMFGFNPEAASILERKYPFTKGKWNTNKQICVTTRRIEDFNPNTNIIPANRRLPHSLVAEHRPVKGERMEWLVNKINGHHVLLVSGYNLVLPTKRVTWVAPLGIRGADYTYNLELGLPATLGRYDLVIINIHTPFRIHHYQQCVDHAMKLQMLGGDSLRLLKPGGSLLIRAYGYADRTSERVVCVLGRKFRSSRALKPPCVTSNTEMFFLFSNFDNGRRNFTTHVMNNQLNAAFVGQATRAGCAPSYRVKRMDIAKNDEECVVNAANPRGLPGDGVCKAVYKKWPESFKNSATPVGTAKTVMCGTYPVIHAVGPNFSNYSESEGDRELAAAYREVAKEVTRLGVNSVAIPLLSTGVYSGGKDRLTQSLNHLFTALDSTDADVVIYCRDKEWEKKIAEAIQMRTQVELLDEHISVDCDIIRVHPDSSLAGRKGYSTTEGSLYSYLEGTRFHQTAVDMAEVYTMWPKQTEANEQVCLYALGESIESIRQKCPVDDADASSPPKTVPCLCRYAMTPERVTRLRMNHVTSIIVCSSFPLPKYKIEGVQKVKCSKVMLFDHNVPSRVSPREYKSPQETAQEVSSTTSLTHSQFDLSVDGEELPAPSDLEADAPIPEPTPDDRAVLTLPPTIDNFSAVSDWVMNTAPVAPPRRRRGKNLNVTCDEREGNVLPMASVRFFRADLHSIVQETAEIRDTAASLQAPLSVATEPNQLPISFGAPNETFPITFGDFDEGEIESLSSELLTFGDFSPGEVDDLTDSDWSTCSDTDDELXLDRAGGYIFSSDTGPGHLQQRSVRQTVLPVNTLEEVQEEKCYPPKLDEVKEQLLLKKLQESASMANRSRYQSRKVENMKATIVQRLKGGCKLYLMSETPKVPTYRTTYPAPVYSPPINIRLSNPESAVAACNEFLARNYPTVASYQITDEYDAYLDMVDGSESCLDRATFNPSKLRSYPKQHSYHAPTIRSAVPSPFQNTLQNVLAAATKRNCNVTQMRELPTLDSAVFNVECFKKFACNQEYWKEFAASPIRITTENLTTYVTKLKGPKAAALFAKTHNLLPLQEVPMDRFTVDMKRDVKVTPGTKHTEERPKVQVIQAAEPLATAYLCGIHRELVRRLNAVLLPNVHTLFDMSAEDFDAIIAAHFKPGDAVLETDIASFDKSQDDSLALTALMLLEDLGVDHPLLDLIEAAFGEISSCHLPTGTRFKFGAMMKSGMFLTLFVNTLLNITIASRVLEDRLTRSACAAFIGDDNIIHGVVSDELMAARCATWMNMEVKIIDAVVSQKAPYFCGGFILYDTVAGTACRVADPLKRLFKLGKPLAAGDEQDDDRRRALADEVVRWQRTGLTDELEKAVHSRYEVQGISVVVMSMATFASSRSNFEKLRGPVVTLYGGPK
HLA class I histocompatibility antigen, B alpha chain: HLA class I histocompatibility antigen, B alpha chain (Homo sapiens, UniProt P01889)
Sequence of UniProt P02716 (whole entry, looked up): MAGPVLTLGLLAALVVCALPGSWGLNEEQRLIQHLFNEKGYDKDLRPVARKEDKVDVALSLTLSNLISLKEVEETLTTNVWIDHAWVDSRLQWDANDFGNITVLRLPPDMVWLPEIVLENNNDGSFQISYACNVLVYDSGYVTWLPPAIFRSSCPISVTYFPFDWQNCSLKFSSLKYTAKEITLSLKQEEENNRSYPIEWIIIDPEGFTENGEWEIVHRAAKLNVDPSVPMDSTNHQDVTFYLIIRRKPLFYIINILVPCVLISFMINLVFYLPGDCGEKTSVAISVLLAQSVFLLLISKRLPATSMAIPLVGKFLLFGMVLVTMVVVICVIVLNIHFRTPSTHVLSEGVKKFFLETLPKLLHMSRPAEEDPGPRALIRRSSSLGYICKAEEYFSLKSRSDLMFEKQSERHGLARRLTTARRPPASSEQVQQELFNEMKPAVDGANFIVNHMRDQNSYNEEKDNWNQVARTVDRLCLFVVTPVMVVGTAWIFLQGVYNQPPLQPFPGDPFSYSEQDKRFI
Sequence of UniProt P20782 (whole entry, looked up): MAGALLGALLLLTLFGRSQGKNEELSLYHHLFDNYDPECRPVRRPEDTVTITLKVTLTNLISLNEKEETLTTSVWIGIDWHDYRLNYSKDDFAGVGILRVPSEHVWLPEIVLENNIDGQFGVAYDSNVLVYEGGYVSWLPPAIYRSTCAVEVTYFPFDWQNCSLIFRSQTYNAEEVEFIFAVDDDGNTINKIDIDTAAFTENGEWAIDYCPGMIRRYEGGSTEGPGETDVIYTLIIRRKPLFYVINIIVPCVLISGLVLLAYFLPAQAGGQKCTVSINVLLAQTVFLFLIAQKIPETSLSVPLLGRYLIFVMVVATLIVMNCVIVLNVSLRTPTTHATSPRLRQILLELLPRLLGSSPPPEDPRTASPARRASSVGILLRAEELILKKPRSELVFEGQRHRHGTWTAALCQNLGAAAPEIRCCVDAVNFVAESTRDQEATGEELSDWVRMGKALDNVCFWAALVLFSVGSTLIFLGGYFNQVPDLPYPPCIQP
Sequence of UniProt Q81Y92 (whole entry, looked up): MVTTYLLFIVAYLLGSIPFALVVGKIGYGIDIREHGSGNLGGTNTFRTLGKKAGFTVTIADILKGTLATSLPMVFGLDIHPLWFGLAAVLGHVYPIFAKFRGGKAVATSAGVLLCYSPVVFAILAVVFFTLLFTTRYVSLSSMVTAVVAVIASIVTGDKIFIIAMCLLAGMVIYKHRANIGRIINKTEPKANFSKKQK
Sequence of UniProt P10635 (whole entry, looked up): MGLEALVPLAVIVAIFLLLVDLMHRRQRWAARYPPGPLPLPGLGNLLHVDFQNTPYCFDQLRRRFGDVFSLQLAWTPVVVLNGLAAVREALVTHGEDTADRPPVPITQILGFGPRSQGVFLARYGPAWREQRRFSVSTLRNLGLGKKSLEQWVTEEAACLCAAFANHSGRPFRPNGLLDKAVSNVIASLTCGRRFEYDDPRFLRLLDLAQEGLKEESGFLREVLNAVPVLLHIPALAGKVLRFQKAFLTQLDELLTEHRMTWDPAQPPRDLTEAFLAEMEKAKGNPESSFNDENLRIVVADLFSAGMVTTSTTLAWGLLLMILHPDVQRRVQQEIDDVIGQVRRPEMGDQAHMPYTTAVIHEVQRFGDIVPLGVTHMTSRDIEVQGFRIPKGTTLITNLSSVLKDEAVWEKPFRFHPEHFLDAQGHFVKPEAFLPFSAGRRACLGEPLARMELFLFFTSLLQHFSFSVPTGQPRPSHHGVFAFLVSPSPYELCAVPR
Sequence of UniProt P36544 (whole entry, looked up): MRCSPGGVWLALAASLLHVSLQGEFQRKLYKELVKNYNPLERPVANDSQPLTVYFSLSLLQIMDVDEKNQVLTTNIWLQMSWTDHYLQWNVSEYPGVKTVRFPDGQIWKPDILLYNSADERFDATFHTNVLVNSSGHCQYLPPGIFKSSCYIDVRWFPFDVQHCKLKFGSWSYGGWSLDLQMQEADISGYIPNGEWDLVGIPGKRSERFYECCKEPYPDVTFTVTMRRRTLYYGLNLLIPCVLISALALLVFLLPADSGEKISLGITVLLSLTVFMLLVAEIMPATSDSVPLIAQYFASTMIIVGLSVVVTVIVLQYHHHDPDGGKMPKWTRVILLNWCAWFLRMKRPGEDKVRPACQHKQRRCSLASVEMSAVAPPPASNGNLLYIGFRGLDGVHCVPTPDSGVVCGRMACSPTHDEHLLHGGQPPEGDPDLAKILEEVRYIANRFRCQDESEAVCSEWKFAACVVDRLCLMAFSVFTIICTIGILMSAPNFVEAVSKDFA

| Substance | target | assay | system | conditions | IC50 |
| --- | --- | --- | --- | --- | --- |
| O=C1c2ccccc2C(c2ccccc2F)C(=O)N1O (centres unmarked) | OPG149 |  |  |  | 2600 nM |
| COc1cc(Nc2ncc(F)c(Nc3ccc4c(n3)NC(=O)C(C)(C)O4)n2)cc(OC)c1OC | CHRNA7 (Homo sapiens, UniProt P36544) |  |  |  | > 10000 nM |
| CCC(C(=O)Nc1cc(NC2CCNCC2)ccc1C)n1cc(Br)cc2nc(SCc3ccc(F)cc3)nc1-2 (centres unmarked) | Replicase polyprotein 1ab, papain-like protease (rep, Middle East respiratory syndrome-related coronavirus, UniProt K9N7C7) | enzyme activity, inhibitor |  |  | > 100000 nM |
| Cn1cnc(Cn2c(=O)[nH]/c(=N\c3cc4cn(C)nc4cc3Cl)n(Cc3cc(F)c(F)cc3F)c2=O)n1 | Cytochrome P450 2D6 (CYP2D6, Homo sapiens, UniProt P10635) | inhibitor | human liver microsomes | 30 min preincubation, preincubation without NADPH, together with: dextromethorphan 10 µM | > 100000 nM |
| C=CS(=O)(=O)CCN1CC(=O)NCC1c1ccccc1 (centres unmarked) | Polyprotein P1234 nsP2 protease domain | enzyme activity, inhibitor, FRET |  | 90 min, 30 min preincubation | 1600 ± 200 nM |
| CCCC(C(=O)Nc1cc(NC2CNC2)ccc1C)n1cccc2nc(SCc3ccc(F)cc3)nc1-2 (centres unmarked) | Replicase polyprotein 1ab, papain-like protease (rep, Middle East respiratory syndrome-related coronavirus, UniProt K9N7C7) | enzyme activity, inhibitor |  |  | > 100000 nM |
| CC[C@H](C)[C@H](NC(=O)[C@H](CC(C)C)NC(=O)CNC(=O)[C@H](CCCNC(=N)N)NC(=O)[C@H](CC(C)C)NC(=O)[C@@H](NC(=O)[C@H](CCSC)NC(=O)[C@@H]1CCCN1C(=O)CN)C(C)C)C(=O)N[C@H](C(=O)O)[C@@H](C)O | HLA class I histocompatibility antigen, B alpha chain | binding, competitor |  |  | 14300 nM |
| CCCC(C(=O)Nc1cc(NC2CCNC2)ccc1C)n1cccc2nc(SCc3ccc(F)cc3)nc1-2 (centres unmarked) | Replicase polyprotein 1ab, papain-like protease (rep, Severe acute respiratory syndrome-related coronavirus, UniProt P0C6X7) | enzyme activity |  |  | 638 ± 352 nM |
| CC[C@H](C)[C@H](NC(=O)[C@H](Cc1c[nH]c2ccccc12)NC(=O)[C@@H](N)C(C)C)C(=O)N[C@@H](CC(N)=O)C(=O)N[C@@H](CC(N)=O)C(=O)N[C@@H](CO)C(=O)N[C@@H](Cc1c[nH]c2ccccc12)C(=O)N[C@@H](CCCCN)C(=O)N[C@@H](Cc1ccccc1)C(=O)O | HLA class I histocompatibility antigen, A alpha chain, allele A*23:01 (Homo sapiens, UniProt P04439) | biochemical |  |  | 5.3 nM |
| CCC(C(=O)Nc1cc(NC2CNC2)ccc1C)n1cc(Cl)cc2nc(SCc3ccc(F)cc3)nc1-2 (centres unmarked) | Replicase polyprotein 1ab, papain-like protease (rep, Severe acute respiratory syndrome-related coronavirus, UniProt P0C6X7) | enzyme activity |  |  | 113 ± 24 nM |
| CC[C@H](C)[C@H](NC(=O)[C@@H](NC(=O)[C@H](C)NC(=O)[C@H](Cc1ccc(O)cc1)NC(=O)[C@H](Cc1c[nH]cn1)NC(=O)[C@H](CCCNC(=N)N)NC(=O)[C@@H]1CCCN1C(=O)[C@@H](N)Cc1c[nH]cn1)[C@@H](C)O)C(=O)N[C@@H](CCSC)C(=O)O | HLA class I histocompatibility antigen, B alpha chain | biochemical |  |  | 12 nM |
| CCCCCCCCCCCC(=O)C(F)(F)P(=O)(O)O | Glycerol-3-phosphate acyltransferase 3 (plsY3, Bacillus anthracis, UniProt Q81Y92) | inhibitor |  |  | 25000 nM |
| oseltamivir carboxylate | neuraminidase (Influenza A virus, UniProt V5JG42) | enzyme activity, inhibitor | A(H9N2) | median over viruses | 0.19 ± 0.02 nM |
| CCC(CC)[C@H](NC(C)=O)[C@@H]1[C@H](O)[C@@H](C(=O)O)C[C@H]1N=C(N)N | neuraminidase (Influenza A virus, UniProt C6ELZ0) |  | human reference strains | mean | 0.26 ± 0.01 nM |
| NC(=O)CI | Polyprotein P1234 nsP2 protease domain | protease activity, inhibitor, FRET |  | 90 min, 30 min preincubation | 15000 nM and 20000 nM |
| CC[C@H](C)[C@H](NC(=O)[C@@H](NC(=O)CNC(=O)[C@H](CO)NC(=O)[C@H](CO)NC(=O)[C@@H](NC(=O)[C@@H](N)C(C)C)[C@@H](C)O)C(C)C)C(=O)N[C@@H](Cc1ccc(O)cc1)C(=O)N[C@@H](CCCCN)C(=O)O | HLA class I histocompatibility antigen, A alpha chain, allele A*11:01 (Homo sapiens, UniProt P04439) | biochemical |  |  | 3.9 nM |

| Substance | target | assay | system | conditions | IC50 |
| --- | --- | --- | --- | --- | --- |
| CC(=O)N[C@H]1[C@H]([C@H](O)[C@H](O)CO)OC(O)(C(=O)O)C[C@@H]1O (some centres unmarked) | Spike glycoprotein, with ACE2 (Severe acute respiratory syndrome coronavirus 2, UniProt P0DTC2) | binding to human ACE2 |  |  | 19.1 nM |
| Cc1ccc2[nH]ncc2c1B(O)O | Polyprotein P1234 nsP2 protease domain | protease activity, inhibitor, FRET |  | 90 min, 30 min preincubation | > 200000 nM |
| CCC(CC)O[C@@H]1C=C(C(=O)O)C[C@H](N)[C@H]1NC(C)=O | Neuraminidase (Influenza A virus, UniProt I3NP73) | enzyme activity, inhibitor | swine influenza A virus, H1N1pdm09 |  | 0.31 ± 0.05 nM |
| CC[C@H](C)[C@H](NC(=O)[C@H](CCC(=O)O)NC(=O)[C@H](CCCCN)NC(=O)[C@H](CC(C)C)NC(=O)[C@H](CC(=O)O)NC(=O)[C@@H](NC(=O)[C@H](Cc1ccc(O)cc1)NC(=O)[C@H](CO)NC(=O)[C@H](CCC(=O)O)NC(=O)[C@H](CCC(=O)O)NC(=O)[C@H](CC(C)C)NC(=O)[C@H](CCCCN)NC(=O)[C@H](CCCCN)NC(=O)[C@@H](NC(=O)[C@H](C)NC(=O)[C@H](CCC(=O)O)NC(=O)[C@H](CCC(=O)O)NC(=O)[C@H](CC(C)C)NC(=O)[C@H](CCCCN)NC(=O)[C@H](CCCCN)NC(=O)[C@H](CCSC)NC(=O)[C@H](CCC(=O)O)NC(=O)[C@H](Cc1ccc(O)cc1)NC(=O)[C@H](CCC(=O)O)NC(=O)[C@H](CC(C)C)NC(=O)[C@H](CC(=O)O)NC(=O)[C@H](CC(C)C)NC(=O)[C@H](Cc1ccccc1)NC(=O)[C@@H](NC(=O)[C@@H](NC(=O)[C@H](CC(N)=O)NC(=O)[C@@H](NC(=O)[C@H](CCC(N)=O)NC(=O)[C@H](CC(=O)O)NC(=O)[C@H](CC(C)C)NC(=O)[C@@H](N)CO)[C@@H](C)CC)C(C)C)[C@@H](C)O)[C@@H](C)CC)[C@@H](C)CC)C(=O)O | Spike glycoprotein (S, Human coronavirus 229E, UniProt P15423) |  |  |  | 320 ± 30 nM |
| CCCCNC(=O)N[C@H]1[C@H]([C@H](O)[C@H](O)CO)OC(C(=O)O)=C[C@@H]1O | Sialidase (nanI, Clostridium perfringens, UniProt A0A0H2YQR1) | enzyme activity, inhibitor |  |  | 240000 nM |
| CCC(C(=O)Nc1ccccc1C)n1cccc2nc(SCc3cccc(F)c3)nc1-2 (centres unmarked) | Replicase polyprotein 1ab, papain-like protease (rep, Severe acute respiratory syndrome-related coronavirus, UniProt P0C6X7) | enzyme activity |  |  | 3960 ± 150 nM |
| CS(=O)(=O)C=CCNC(=O)C1CCN(c2ccc(F)cc2)C1=O (centres unmarked) | Polyprotein P1234 nsP2 protease domain | protease activity, inhibitor, FRET |  | 90 min, 30 min preincubation | 30000 ± 5000 nM |
| CC[C@H](C)[C@H](NC(=O)[C@H](Cc1ccc(O)cc1)NC(=O)[C@@H](N)C(C)C)C(=O)N[C@@H](CC(N)=O)C(=O)N[C@@H](Cc1c[nH]cn1)C(=O)N1CCC[C@H]1C(=O)N[C@@H](Cc1ccccc1)C(=O)N[C@@H](CCSC)C(=O)N[C@@H](Cc1ccc(O)cc1)C(=O)O | HLA class I histocompatibility antigen, A alpha chain, allele A*29:02 (Homo sapiens, UniProt P04439) | biochemical |  |  | 0.68 nM |
| C=CC(=O)N1CCCC(C(=O)O)(C(F)(F)F)C1 (centres unmarked) | Polyprotein P1234 nsP2 protease domain | enzyme activity, inhibitor, FRET |  | 90 min, 30 min preincubation | 8600 ± 2800 nM |
| O=C(N1CCC2(CC1)C[C@@H](CN1CCCCS1(=O)=O)CCO2)C1(c2cc(F)cc(F)c2)CCCC1 | Polyprotein P1234, nsP2 (Chikungunya virus, UniProt Q8JUX6) | nsP2 ATPase activity, inhibitor, ADP-Glo |  |  | 46000 nM |
| COc1cc2c3cc1Oc1cc(ccc1O)C[C@@H]1c4c(cc(OC)c(O)c4Oc4ccc(cc4)C[C@@H]3N(C)CC2)CC[N+]1(C)C | Chrnd/Chrna1/Chrne (Mus musculus, UniProt P02716+P04756+P20782) | endplate current peak height, inhibitor, two-electrode voltage clamp | mouse hemidiaphragm | -80 mV, paraoxon treated, together with: alpha-bungarotoxin 5 µg i.v. pretreatment | 109 nM |
| O=C(C1=C(O)C(=O)N(Cc2ccco2)C1c1cccc(Cl)c1)c1ccc2c(c1)OCCO2 (centres unmarked) | Replicase polyprotein 1ab, nsp13 helicase (rep, Severe acute respiratory syndrome coronavirus 2, UniProt P0DTD1) | helicase ATPase activity, inhibitor, Kinase-Glo luminescence |  | 60 min, together with: 2.5 µM ATP | 77000 nM |
| COc1ccc(-c2cccc(Nc3cc(=O)n(O)c(=O)n3C)c2)cc1 | OPG149 |  |  |  | 193 nM |
| C#Cc1cccc(N(Cc2ccco2)C(=O)CCl)c1 | Polyprotein P1234 nsP2 protease domain | protease activity, inhibitor, FRET |  | 90 min, 30 min preincubation | 74000 ± 9000 nM |
| CCC(C(=O)Nc1cc(NC2CCOCC2)ccc1C)n1cc(F)cc2nc(SCc3ccc(F)cc3)nc1-2 (centres unmarked) | Replicase polyprotein 1ab, papain-like protease (rep, Middle East respiratory syndrome-related coronavirus, UniProt K9N7C7) | enzyme activity, inhibitor |  |  | > 100000 nM |
| CCC(CC)O[C@@H]1C=C(C(=O)O)C[C@H](N)[C@H]1NC(C)=O | neuraminidase (Influenza A virus, UniProt A9YLD5) |  |  |  | 0.65 nM |

Repeated from above:
| Substance | target | assay | system | conditions | IC50 |
| --- | --- | --- | --- | --- | --- |
| CCCCCCCCCCCC(=O)C(F)(F)P(=O)(O)O | Glycerol-3-phosphate acyltransferase 3 (plsY3, Bacillus anthracis, UniProt Q81Y92) | inhibitor |  |  | 25000 nM |
| oseltamivir carboxylate | neuraminidase (Influenza A virus, UniProt V5JG42) | enzyme activity, inhibitor | A(H9N2) | median over viruses | 0.19 ± 0.02 nM |
| CCC(CC)[C@H](NC(C)=O)[C@@H]1[C@H](O)[C@@H](C(=O)O)C[C@H]1N=C(N)N | neuraminidase (Influenza A virus, UniProt C6ELZ0) |  | human reference strains | mean | 0.26 ± 0.01 nM |
| NC(=O)CI | Polyprotein P1234 nsP2 protease domain | protease activity, inhibitor, FRET |  | 90 min, 30 min preincubation | 15000 nM and 20000 nM |
